Measured values pooled from the literature.
Protocols differ between the studies behind these lines. Several values in a cell are separate wells, animals, samples, runs or records.
Target: Protein kinase C epsilon type (PRKCE, Homo sapiens, UniProt Q02156)
Sequence (Q02156 1-737, as in one of the studies): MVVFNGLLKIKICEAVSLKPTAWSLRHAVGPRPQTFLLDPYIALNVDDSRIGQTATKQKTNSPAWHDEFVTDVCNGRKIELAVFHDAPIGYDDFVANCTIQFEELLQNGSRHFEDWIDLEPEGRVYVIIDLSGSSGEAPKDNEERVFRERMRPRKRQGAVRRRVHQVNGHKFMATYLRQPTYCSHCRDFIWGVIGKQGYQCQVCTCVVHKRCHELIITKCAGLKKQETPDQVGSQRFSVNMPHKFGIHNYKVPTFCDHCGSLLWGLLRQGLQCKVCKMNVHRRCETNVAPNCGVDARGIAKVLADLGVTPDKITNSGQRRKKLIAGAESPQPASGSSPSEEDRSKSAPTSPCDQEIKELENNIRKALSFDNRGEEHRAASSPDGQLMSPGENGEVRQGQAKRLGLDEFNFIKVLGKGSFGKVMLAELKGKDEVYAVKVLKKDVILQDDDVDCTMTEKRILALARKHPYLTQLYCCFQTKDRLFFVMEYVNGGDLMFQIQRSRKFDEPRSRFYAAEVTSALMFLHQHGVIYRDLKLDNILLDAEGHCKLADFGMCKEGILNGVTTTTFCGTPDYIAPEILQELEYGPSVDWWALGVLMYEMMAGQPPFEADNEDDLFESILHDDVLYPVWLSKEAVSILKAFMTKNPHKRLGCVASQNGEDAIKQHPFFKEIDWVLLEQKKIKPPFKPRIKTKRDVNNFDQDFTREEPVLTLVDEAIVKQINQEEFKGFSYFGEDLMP

Compound = O=C(N[C@@H]1c2ccccc2C[C@H]1N1CCCC1)c1ccc(-c2ccnc3[nH]ccc23)nc1; test = binding, competition with immobilised ligand; setting = 3 µM; endpoint = remaining binding; result = 0%
Compound = CS(C)(=O)=Nc1ccc(-c2ccc(-c3nc4cc(O[C@@H]5CO[C@H]6[C@@H]5OC[C@H]6O)[nH]c4cc3F)cc2)cc1; test = enzyme activity, inhibitor; setting = 10 µM; endpoint = inhibition; result = 4%
Compound = O=C1NC(=O)c2c1c1cc(F)c[n+]3c1c1c2c2cc(O)ccc2[n]1[Ru-4]312([N]=C=S)[S+]3CC[S+]1CC[S+]2CC3 (centres unmarked); test = enzyme activity; setting = 100 nM, human enzyme, together with: 10 µM ATP; scale = reference: untreated; endpoint = remaining activity; result = 62%
Compound = CC(C)[C@H]1NC(=O)C[C@H]2/C=C/CCSSC[C@@H](NC1=O)C(=O)N[C@H](Cc1cccc3ccccc13)C(=O)NCC(=O)O2; test = enzyme activity, inhibitor; setting = 10 µM; endpoint = inhibition; result = 14.3%
Compound = Nc1ccc(/C=C/C(=O)N2CCc3c(oc4c(-c5ccc(F)cc5)cc(-c5ccc(C(=O)N6CCC(F)(F)CC6)cn5)cc34)C2)cn1; test = binding, competition with immobilised ligand; setting = 1 µM; endpoint = remaining binding; result = 90%
Compound = C[C@H](NCc1ccc(-c2ccc(C(F)(F)F)cc2)cc1)C(N)=O; test = cell-free assay, competition with immobilised ligand; setting = 1 µM; endpoint = inhibition; result = 0%
Compound = CCOC(=O)[C@@H]1Cc2c(cc([N+](=O)[O-])cc2[N+](=O)[O-])[C@H](O)[C@]12C(=O)Nc1ccc(Br)cc12; test = binding, competition with immobilised ligand; setting = 0.1 µM; endpoint = remaining binding; result = 71%
Compound = [CH3][Ti+2][O]C(=O)c1ccc([S][Au][PH](c2ccccc2)(c2ccccc2)c2ccccc2)cc1.c1cc[cH-]c1.c1cc[cH-]c1; test = kinase activity; setting = 1 µM, together with: ATP 10 µM; endpoint = remaining activity; result = 90.8% and 88.9%

Excerpt of the above:
Compound = CCOC(=O)[C@@H]1Cc2c(cc([N+](=O)[O-])cc2[N+](=O)[O-])[C@H](O)[C@]12C(=O)Nc1ccc(Br)cc12; test = binding, competition with immobilised ligand; setting = 0.1 µM; endpoint = remaining binding; result = 71%
